Experimental data pooled from the literature.
Each numbered part is a random draw from the data of one study; scales do not carry over between parts. Values joined by “and” are separate records of one study, mostly repeats; a detail may differ.
Chain of UniProt P78368 (whole entry, looked up): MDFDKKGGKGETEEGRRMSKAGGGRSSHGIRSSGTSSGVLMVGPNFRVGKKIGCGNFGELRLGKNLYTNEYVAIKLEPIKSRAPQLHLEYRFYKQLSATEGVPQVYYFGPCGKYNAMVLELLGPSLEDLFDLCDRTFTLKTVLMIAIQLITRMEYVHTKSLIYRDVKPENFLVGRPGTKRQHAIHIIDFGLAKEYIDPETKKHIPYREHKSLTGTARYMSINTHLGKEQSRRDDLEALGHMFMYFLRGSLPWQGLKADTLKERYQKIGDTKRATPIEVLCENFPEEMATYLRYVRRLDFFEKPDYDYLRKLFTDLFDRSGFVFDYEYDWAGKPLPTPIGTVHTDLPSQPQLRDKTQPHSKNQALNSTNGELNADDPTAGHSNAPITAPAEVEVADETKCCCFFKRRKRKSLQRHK

Series 1 — cell line: mouse MPNST tumor cells; technique: high-content immunofluorescence imaging; measured: nuclear SOX9; tested at: 10 µM; time: 12 h; setting: mean of 2 replicates; reference: DMSO control; direction: higher = more nuclear SOX9; quantity: nuclear SOX9 intensity
CCN(CCCCOC(=O)c1ccc(OC)c(OC)c1)C(C)Cc1ccc(OC)cc1 (stereo not shown): 145 % of DMSO
CC(=O)OCC(COC(C)=O)OC(C)=O: 95 % of DMSO
COCC(=O)NCCc1c(C)[nH]c2ccc(O)cc12: 99 % of DMSO
O=C(O)C[C@H]1CC[C@H](c2ccc(NC(=O)c3nnc(Nc4ccc(F)c(F)c4)o3)cc2)CC1: 99.3 % of DMSO
CC[C@@H](C)c1ccc(NC(=O)Cn2cnc3c2c(=O)n(C)c(=O)n3C)cc1 (racemic): 108 % of DMSO
CCCCC#Cc1nc(NC)c2ncn(C3OC(CO)C(O)C3O)c2n1 (stereo not shown): 103 % of DMSO
Cc1c[nH]c2ncnc(-c3ccc(NC(=O)N(CCO)c4ccccc4)cc3)c12: 82.1 % of DMSO
CCN1CCC[C@H]1CNC(=O)c1c(O)c(Cl)cc(Cl)c1OC: 95.2 % of DMSO and 112 % of DMSO

Series 2 — action: antagonist; quantity: IC50
Target: Beta-1 adrenergic receptor (ADRB1, Homo sapiens, UniProt P08588)
Chain of UniProt P08588 (whole entry, looked up): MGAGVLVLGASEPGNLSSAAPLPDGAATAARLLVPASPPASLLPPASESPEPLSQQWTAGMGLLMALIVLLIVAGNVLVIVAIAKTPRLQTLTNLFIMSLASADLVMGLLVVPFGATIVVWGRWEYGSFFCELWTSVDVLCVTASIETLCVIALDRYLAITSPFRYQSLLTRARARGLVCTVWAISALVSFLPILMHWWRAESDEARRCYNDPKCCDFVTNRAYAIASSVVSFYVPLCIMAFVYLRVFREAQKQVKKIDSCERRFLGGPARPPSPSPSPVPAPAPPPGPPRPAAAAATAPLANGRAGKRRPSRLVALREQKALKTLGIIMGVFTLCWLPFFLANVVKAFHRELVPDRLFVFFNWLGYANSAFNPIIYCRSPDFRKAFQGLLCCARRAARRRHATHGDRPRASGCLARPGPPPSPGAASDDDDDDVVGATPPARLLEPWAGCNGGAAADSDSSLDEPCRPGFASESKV
Cc1ccc(-c2nnc(-c3cc(-c4ccccc4)nc4ccccc34)o2)cc1: ≥ 100 µM
Cc1ccccc1-n1ncc2c(NCC(C)O)ncnc21 (stereo not shown): ≥ 100 µM
CN(C)c1ccc(CN2CC[C@H](c3nc4ccc(C(F)(F)F)cc4[nH]3)C2)cc1: ≥ 100 µM
O=C(Nc1cnc2c(c1)COCC2)c1ccc2ccccc2n1: ≥ 100 µM
CC1(C)C=Cc2cc3ccc(=O)oc3cc2O1: ≥ 100 µM
O=c1c(Cl)c(NC(c2ccccc2)c2cccs2)cnn1-c1ccccc1 (stereo not shown): ≥ 100 µM
OCCc1ccc(O)cc1: ≥ 100 µM
Nc1ncnc2nc(-c3ccc(N4CCOCC4)nc3)cc(-c3cccc(Br)c3)c12: 25.1 µM

Series 3 — organism: Sarcocystis neurona; observed: parasite growth; tested at: 10 µM; time: 96 h; quantity: inhibition
CC(C[N+](C)(C)C)OC(N)=O (stereo not shown): -12.1%
CC(=O)OCC[N+](C)(C)C: -14.3%
CC(C(=O)O)c1ccc(CC2CCCC2=O)cc1 (stereo not shown): -12.5%
CCS(=O)(=O)CCn1c([N+](=O)[O-])cnc1C: -8.3%
O=C(O)Cc1ccccc1Nc1c(Cl)cccc1Cl: -5.9%
Nc1nc(=O)c2nc(CNc3ccc(C(=O)N[C@@H](CCC(=O)O)C(=O)O)cc3)cnc2[nH]1: -17.5%
CN(C)CCC=C1c2ccccc2COc2ccccc21: -5.3%
C[C@](N)(Cc1ccc(O)c(O)c1)C(=O)O: -16.9%

Single results of other studies
Cn1cncc1[C@](O)(COc1ccc(C#N)cc1-c1ccc(OC(F)(F)F)cc1)c1ccc(C#N)cc1  remaining binding (Casein kinase I isoform gamma-2 (CSNK1G2, Homo sapiens, UniProt P78368); cell-free assay, competition with immobilised ligand; 1 µM): 78%
